Measured values collected from several papers.
Several values in a cell are separate wells, animals, samples, runs or records. ± gives the spread as reported.

`CCCCCCCCCCCCCCCC(=O)N[C@@H](CCC(=O)NCCCC[C@@H]1NC(=O)[C@H]([C@@H](C)CC)NC(=O)[C@@H](NC(=O)[C@@H]2CCCN2C(=O)[C@H](Cc2ccccc2)NC(=O)[C@H](Cc2c[nH]cn2)NC(=O)[C@@H](NC(=O)[C@H](CC(=O)O)NC(=O)CC(C)C)[C@@H](C)O)CSSC[C@@H](C(=O)N[C@@H](CCCCN)C(N)=O)NC(=O)CNC(=O)[C@H](CCCCN)NC(=O)[C@H](CO)NC(=O)[C@H](CCCNC(=N)N)NC(=O)[C@@H]2CCCN2C(=O)[C@H](CCC(=O)O)NC(=O)[C@H](Cc2ccccc2)NC1=O)C(=O)O` has an AUC(0-inf) of 16400 ± 2990 ng·h/mL (healthy volunteers, plasma; subcutaneous, 10 mg single, lyophilised formulation).
`COc1cc2c3c(n(CCCN4CCOCC4)c(=O)c2cc1OC)-c1cc2c(cc1C3=O)OCO2` gave an AUC(0-inf) of 6300 ng·h/mL and 2340 ng·h/mL (beagle dog, female, plasma; oral, 1720 mg/m^2, gelatin capsule).
For `Cn1cc(-c2ccc(-c3cncc(Cl)c3N3CCC4(CCNC4=O)CC3)cc2)cn1`, “log2 fold change” read -2.11 (COLO 205; gene expression, microarray, item: CTSV mRNA; concentration not given, 2 h; baseline: untreated cells).
The tissue uptake of `CC(C)C[C@H](NC(=O)C[C@H](O)[C@H](CC(C)C)NC(=O)[C@H](Cc1c[nH]cn1)NC(=O)CNC(=O)[C@@H](NC(=O)[C@H](C)NC(=O)[C@H](Cc1c[nH]c2ccccc12)NC(=O)[C@H](CCC(N)=O)NC(=O)[C@@H](Cc1ccccc1)NC(=O)COCCOCCNC(=O)CCC(C(=O)O)N1CCN(CC(=O)O)CCN(CC(=O)O)CCN(CC(=O)O)CC1)C(C)C)C(N)=O` (stereo partly shown) [lutetium-177 labelled] is reported as 2.1 ± 0.4 %ID/g (BALB/c nu/nu mice, stomach; intravenous, 100 pmol, 1 h, with: PA 300 µg).
For `Cc1nc(-c2cnc(NC(C)C)n(C)c2=O)ccc1Oc1ccnc(-c2cnn(C)c2)c1`, the AUC(0-inf) was 8360 ng·h/mL (Beagle dog, male, plasma; oral, 3 mg/kg, crossover study, mean).
With `N#C[C@@]1(c2ccc3c(N)ncnn23)O[C@H](CO)[C@@H](O)[C@H]1O` the AUC(0-inf) was 19300 ng·h/mL (beagle dog male, plasma; oral capsule, 6.5 mg/kg).
`CCn1cc(C(=O)N2CCOCC2)c(=O)c2cc(NC3Cc4ccccc4C3)cnc21` gave an AUC(0-inf) of 37700 ng·h/mL (human, fasted, plasma; oral, 1200 mg single dose, tablet, arithmetic mean).
The AUC(0-inf) of `COc1nc(-c2cc(C)c(N[C@@H](C)c3cc(F)cc(F)c3)nn2)ccc1-n1cnc(C)c1` is reported as 3180 ng·h/mL (cynomolgus monkey, male, plasma; intravenous, 1 mg/kg).
With `C=CC(=O)NC1CCN(c2ncc3ncnc(Nc4ccc(Oc5ccc6c(c5)ncn6C)c(C)c4)c3n2)CC1` the AUC(0-inf) was 0.827 µM·h (male beagle dogs, plasma; oral, 3 mg/kg, Natrosol suspension, with: famotidine pretreatment).
`CCc1nc2c(C)cc(N3CCN(CC(=O)N4CC(O)C4)CC3)cn2c1N(C)c1nc(-c2ccc(F)cc2)c(C#N)s1` has an AUC(0-inf) of 132000 ng·h/mL (healthy volunteers, plasma; oral, 1000 mg once daily multiple doses).
Under “cells with numerical aberrations”, `c1csc(CNc2cc[nH]n2)c1` is recorded as 0% (human peripheral blood lymphocytes (female); 1130 µg/mL, 4 h, initial, with: with S9).
For `CC(C)Oc1c(NC(=O)c2ccc(NC(=O)[C@H](CC(N)=O)NC(=O)c3ccc(NC(=O)c4ccc(C#N)cc4)cc3)cc2)ccc(C(=O)Nc2ccc(C(=O)O)cc2)c1O`, the concentration was 100 ± 3.2 ng/mL (Escherichia coli ATCC 25922; neutropenic male CD-1 mice, muscle; iv then sc, 37.5 mg/kg/day, 24 h after infection, thigh infection model).
With `C[C@@H]1CN(CC(=O)N2CC(C)(C)c3ncc(Cc4ccc(F)cc4)cc32)[C@@H](CN2CCOC[C@H]2C)CN1` the AUC(0-inf) was 80 ± 11 ng·h/mL (cynomolgus monkey, male; oral, 5 mg/kg).
`CNCc1ccc(-c2[nH]c3cc(F)cc4c3c2CCNC4=O)cc1` gave a cough incidence of 33.3% (patients; oral, 240 mg twice daily, all grades).
`C[C@@H](N)C1CCN(S(=O)(=O)c2cccc3cnccc23)CC1` gave an AUC(0-inf) of 44.7 ng·h/mL (healthy volunteers, plasma; oral, 150 mg, fed, single dose).
The AUC(0-inf) of `CC(C(=O)NCC(=O)NCC(CNC(=O)CNC(=O)C(C)N1CCN(CC(=O)[O-])CCN(CC(=O)[O-])CCN(CC(=O)[O-])CC1)(CNC(=O)CNC(=O)C(C)N1CCN(CC(=O)[O-])CCN(CC(=O)[O-])CCN(CC(=O)[O-])CC1)CNC(=O)CNC(=O)C(C)N1CCN(CC(=O)[O-])CCN(CC(=O)[O-])CCN(CC(=O)[O-])CC1)N1CCN(CC(=O)[O-])CCN(CC(=O)[O-])CCN(CC(=O)[O-])CC1.[Gd+3].[Gd+3].[Gd+3].[Gd+3]` (stereo not shown) is reported as 874 µM·h (ICP-MS; female cynomolgus monkey, plasma; intravenous bolus, 0.1 mmol/kg, lanthanide mixture, geometric mean).
